Assay results from different studies.
Parts stem from different laboratories: compare values within a part only.

Sample 1 — method: RNA Bind-n-Seq; form: RNA; matrix: in vitro; concentration: not given; reference: input RNA pool; direction: higher = stronger binding
Target: RING finger protein unkempt homolog, zinc fingers 1-6, GST-SBP tag (UNK, Homo sapiens, UniProt Q9C0B0, residues 30-357)
Chain of UniProt Q9C0B0 (30-357, looked up): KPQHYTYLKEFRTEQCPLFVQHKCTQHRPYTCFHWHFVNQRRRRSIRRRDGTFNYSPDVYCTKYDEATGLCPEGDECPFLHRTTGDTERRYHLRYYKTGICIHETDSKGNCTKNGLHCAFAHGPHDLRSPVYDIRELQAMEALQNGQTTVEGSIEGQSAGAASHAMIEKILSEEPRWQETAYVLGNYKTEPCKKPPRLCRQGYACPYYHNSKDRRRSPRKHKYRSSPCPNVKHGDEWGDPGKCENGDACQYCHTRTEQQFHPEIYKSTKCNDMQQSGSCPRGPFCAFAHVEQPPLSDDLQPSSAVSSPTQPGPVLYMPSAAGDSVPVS
Notes: RNA with constant flanks, human and mouse sites, ends assumed
Constant ends, left off below: GGGAGUUCUACAGUCCGACGAUC … CAACAGAGGAUUGAGCAUCA
| Oligonucleotide | bound/input enrichment |
| --- | --- |
| GGUGGGGUGGGCAUGGGGUGGGGGUAUGGGAACAGUUGGAGGAAUGGGAUAUCUGGGGAUAAUUUUAAAGGAUUACAUGUUAUGUAAAUUUUUAUGUGACUGACAUGGAGCCUGGAUGAC | 2.64 ratio |
| UUUAUUGAUCAGGUCUGUAAAUGUGUACUGAAAAAAAUCAGAGUUUAUUUAUAAAUAGAAUAGUUUAUUUAAAGAGGUAUUUUCCUCCUUGAUAUCAUGGUAUGCAUAAUUCUGUGUGUU | 5.36 ratio |
| GAAAAUGAGCAAGAGCGGCAAUCGGACACUGAGGACGGCUCCAGCAAGAGAGAGACGCAGACGGAUUCUGUUUCCAGGUAUGACAGCAGUUCCACAUCAUCAAGUGAUCGGUAUGAUUCC | 0.303 ratio |
| GACGAUGAGGCCGCCAUGGGUAUUAAGAGCUGCGACCCCAAAGGCCCACUUAUGAUGUACAUUUCCAAGAUGGUGCCAACCUCUGACAAAGGCCGCUUCUAUGCCUUUGGUAGAGUGUUC | 0.371 ratio |
| GGUUAUUUACUACUCUUCAAAGUCUUCUGUUACCCAAACAUACAGUUAAUAAUUAUCAAUUUAUGGAGUGCAUUUGGCUAAAAGUCUGUUUUGGGCUUACUAAAGGGAAUGCCUUCAUAG | 0.587 ratio |
| AUUUAGAGAAUGAUUUCCACCUUUAUGUUUUAAUAUCCUAGGCAUCUGCUGUAAUAAUAUUUUAGAAAAUGUUUGGAAUUUAAGAAAUAACUUGUGUUACUAAUUUGUAUAACCCAUAUC | 2.69 ratio |
| GCCACUAUCAUCCUCCUUCUGCUUGCACAAGUUUCCUGGGCUGGACCGUUUCAACAGAGAGGCUUAUUUGACUUUAUGCUAGAAGAUGAGGCUUCUGGGAUAGGCCCAGAAGUUCCUGAU | 0.202 ratio |
| GAUACUUUAUUUCGGUGGGAACAAGAUGAAAUACCAAGCUCUUUAAUAUUGGAAGGUGUUGAACCACAGAGUACAUGUGAAUUAGAAGUGGAUGCUGUAGCUGCUGAUAUCUUAAAUCGU | 0.856 ratio |

Sample 2 — read-out: enzyme activity; action: inhibitor; notes: without DTT
Target: Replicase polyprotein 1ab, main protease (rep, Severe acute respiratory syndrome coronavirus 2, UniProt P0DTD1)
| Structure (SMILES) | IC50 |
| --- | --- |
| Cc1ccc(S(=O)(=O)/C=C/C#N)cc1 | 0.8 µM |
| Oc1ccc(C2CNCCc3c2cc(O)c(O)c3Cl)cc1 (centres unmarked) | > 20 µM |
| COc1cc(N(C)C)cc(CN(C)CCc2ccc([N+](=O)[O-])cc2)c1O | 6.1 µM |

Sample 3 — method: universal PBM; form: double-stranded DNA, one strand shown; matrix: in vitro; concentration: not given; direction: higher = stronger binding
Target: Sal-like protein 4, full length isoform B (SALL4, Homo sapiens, UniProt Q9UJQ4-2, residues 1-616)
Notes: 8-mer, flanks averaged, mean of replicates
| Oligonucleotide | E-score |
| --- | --- |
| AAAGAGAG | -0.0635 |
| CGCAACCA | -0.22 |
| GAGTTCCC | -0.263 |
| CTCTCGTC | -0.0981 |
| CTAGAGCA | -0.17 |
| CTAGATAC | 0.168 |
| ATACGTGC | -0.00069 |
| ACTCGACG | -0.125 |

Sample 4 — read-out: enzyme activity; action: inhibitor; concentration: 20 µM
Target: Replicase polyprotein 1ab, polymerase (rep, Severe acute respiratory syndrome coronavirus 2, UniProt P0DTD1)
| SMILES | inhibition |
| --- | --- |
| CCCC(=O)O | -0.83% |
| CC(C)(Oc1ccc(Cl)cc1)C(=O)O | 0.39% |
| N[C@H](C(=O)O)c1ccc(C(=O)O)c(O)c1 | -1.79% |
| CCOc1ccccc1-n1c(C(C)N2CCN(C(=O)COc3ccc(Cl)cc3)CC2)nc2ccccc2c1=O (centres unmarked) | 1.18% |
| C=CC[N+]1([C@H]2C[C@H]3[C@@H]4CC[C@H]5C[C@H](O)[C@@H](N6CCOCC6)C[C@]5(C)[C@H]4CC[C@]3(C)[C@H]2OC(C)=O)CCCC1 | -0.89% |
| COCc1c(-c2ccc(NC(=O)Nc3cc(C(F)(F)F)ccc3F)c(F)c2)c2c(N)ncnn2c1CN1CCOCC1 | -9.87% |
| CN(Cc1cccc(-c2ccccc2)c1)C(=O)Oc1ccc(-c2ccc(C(N)=O)cc2)cc1 | 3.61% |
| CSC[C@H](N)C(=O)O | 4.02% |
| CC1(C)S[C@@H]2[C@H](NC(=O)[C@H](C(=O)O)c3ccsc3)C(=O)N2[C@H]1C(=O)O | -0.41% |
| O=C(NC(O)C(Cl)(Cl)Cl)NC(O)C(Cl)(Cl)Cl (centres unmarked) | 1.06% |
| CC(=O)OCC(=O)[C@@]1(O)CC[C@H]2[C@@H]3CCC4=CC(=O)C=C[C@]4(C)[C@@]3(F)[C@@H](O)C[C@@]21C | 3.86% |
| CN(C)C/C=C(/c1ccc(Br)cc1)c1cccnc1 | 4.68% |
| COc1cc(OC)c(C(=O)CCCCN2CCC3(CC2)NC(=O)NC3=O)cc1NS(=O)(=O)c1ccc(C(F)(F)F)cc1 | -7.47% |
| C=CC(=O)Nc1cc2c(Nc3ccc(F)c(Cl)c3)ncnc2cc1OCCCN1CCOCC1 | -10.1% |
| CC1CC(OC(=O)C(O)c2ccccc2)CC(C)(C)N1C (centres unmarked) | -2.54% |
| Cc1cc(C)cc(OCC2CNC(=O)O2)c1 (centres unmarked) | -3.77% |
| O=P1(NCCCl)OCCCN1CCCl (centres unmarked) | -2.79% |
| CC(=O)N(C)c1cccc(-c2ccnc3c(C(=O)c4cccs4)cnn23)c1 | 3.34% |
| O=C(OCCOCCO)c1ccccc1Nc1cccc(C(F)(F)F)c1 | 1.22% |

Sample 5 — cell line: HEK-293T; read-out: pseudovirus infection; organism: VSV pseudotyped with SARS-CoV-2 spike; concentration: 10 µM; time: 16 h; reference: vehicle-treated
| Compound | GFP-positive cells [%] |
| --- | --- |
| Cc1c(-c2ccc(O)cc2)n(Cc2ccc(OCCN3CCCCCC3)cc2)c2ccc(O)cc12 | 12.3 |
| C[C@@H](O)[C@H]1C(=O)N2C(C(=O)O)=C(SCCN=CN)C[C@H]12 | 90.4 |
| NCCCC(N)(C(=O)O)C(F)F (centres unmarked) | 78.7 |

Excerpt of the above (sample 4):
| SMILES | inhibition |
| --- | --- |
| N[C@H](C(=O)O)c1ccc(C(=O)O)c(O)c1 | -1.79% |
| COCc1c(-c2ccc(NC(=O)Nc3cc(C(F)(F)F)ccc3F)c(F)c2)c2c(N)ncnn2c1CN1CCOCC1 | -9.87% |
| O=C(NC(O)C(Cl)(Cl)Cl)NC(O)C(Cl)(Cl)Cl (centres unmarked) | 1.06% |
